Assay results of several laboratories.
“And” joins repeats or separate records; there may be more than shown. ± marks the error that the study gave.
CYP2C19: Cytochrome P450 2C19 (CYP2C19, Homo sapiens, UniProt P33261)
Chain of UniProt P33261 (whole entry, looked up): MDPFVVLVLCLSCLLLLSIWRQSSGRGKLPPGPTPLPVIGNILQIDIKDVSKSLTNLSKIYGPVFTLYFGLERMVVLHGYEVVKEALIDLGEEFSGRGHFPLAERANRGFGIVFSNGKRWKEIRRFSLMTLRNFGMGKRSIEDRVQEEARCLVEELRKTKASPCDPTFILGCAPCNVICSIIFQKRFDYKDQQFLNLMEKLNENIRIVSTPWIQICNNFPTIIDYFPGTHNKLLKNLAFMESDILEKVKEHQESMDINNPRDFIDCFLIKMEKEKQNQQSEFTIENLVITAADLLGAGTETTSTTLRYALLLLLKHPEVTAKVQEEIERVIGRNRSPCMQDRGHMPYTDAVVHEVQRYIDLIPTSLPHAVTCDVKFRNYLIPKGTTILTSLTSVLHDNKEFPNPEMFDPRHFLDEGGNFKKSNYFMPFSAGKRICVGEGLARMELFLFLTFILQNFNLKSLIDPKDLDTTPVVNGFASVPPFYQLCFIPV
Chain of UniProt P08183 (whole entry, looked up): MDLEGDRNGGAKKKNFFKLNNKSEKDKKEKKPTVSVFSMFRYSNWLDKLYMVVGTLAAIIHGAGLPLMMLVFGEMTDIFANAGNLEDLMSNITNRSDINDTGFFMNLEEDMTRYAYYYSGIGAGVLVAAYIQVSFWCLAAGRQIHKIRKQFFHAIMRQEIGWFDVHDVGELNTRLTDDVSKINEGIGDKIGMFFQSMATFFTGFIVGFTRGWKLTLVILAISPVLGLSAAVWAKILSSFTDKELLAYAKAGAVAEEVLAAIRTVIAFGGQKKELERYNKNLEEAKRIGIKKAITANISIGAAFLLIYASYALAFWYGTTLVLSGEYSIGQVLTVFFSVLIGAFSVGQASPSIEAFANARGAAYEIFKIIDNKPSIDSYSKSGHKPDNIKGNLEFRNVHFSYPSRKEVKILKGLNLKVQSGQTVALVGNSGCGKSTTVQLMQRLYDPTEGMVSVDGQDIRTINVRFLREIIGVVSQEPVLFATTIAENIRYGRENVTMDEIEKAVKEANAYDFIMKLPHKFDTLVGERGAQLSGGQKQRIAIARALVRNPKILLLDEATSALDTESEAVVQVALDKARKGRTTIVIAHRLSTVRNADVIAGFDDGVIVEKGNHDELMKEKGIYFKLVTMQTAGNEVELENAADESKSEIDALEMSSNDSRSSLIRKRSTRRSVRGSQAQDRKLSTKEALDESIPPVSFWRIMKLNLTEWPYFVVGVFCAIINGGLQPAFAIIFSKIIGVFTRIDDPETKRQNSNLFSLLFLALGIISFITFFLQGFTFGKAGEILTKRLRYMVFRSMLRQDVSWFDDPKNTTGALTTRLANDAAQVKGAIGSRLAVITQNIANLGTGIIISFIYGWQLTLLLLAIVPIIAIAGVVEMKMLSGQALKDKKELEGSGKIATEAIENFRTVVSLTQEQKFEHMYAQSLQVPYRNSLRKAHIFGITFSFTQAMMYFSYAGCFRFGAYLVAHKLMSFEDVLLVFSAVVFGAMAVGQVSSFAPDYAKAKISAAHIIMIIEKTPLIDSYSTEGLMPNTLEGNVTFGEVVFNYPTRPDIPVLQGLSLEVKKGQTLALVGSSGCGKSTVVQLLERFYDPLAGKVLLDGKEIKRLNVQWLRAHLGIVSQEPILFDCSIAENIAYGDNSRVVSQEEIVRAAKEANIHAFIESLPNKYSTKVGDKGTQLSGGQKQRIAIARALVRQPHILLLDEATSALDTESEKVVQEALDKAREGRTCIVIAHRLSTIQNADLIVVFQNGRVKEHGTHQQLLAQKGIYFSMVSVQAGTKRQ

Structure (SMILES)	tested on	assay	test system	setting	how to read	measurement	result
C[C@@H](c1ccc2nccn2c1)n1nnc2ncc(-c3cn[nH]c3)nc21	CYP2C19	enzyme activity, inhibitor	human, liver microsomes	–	–	IC50	> 50 µM
COc1ccc(-n2cc(C(=O)N3C[C@]4(OC(=O)c5ccccc5NC(C)=O)CC[C@H](OC)[C@@]56[C@@H]4C[C@@H]([C@@H]35)[C@@]3(O)C[C@H](OC)[C@H]4C[C@@H]6[C@]3(O)[C@H]4OC)nn2)cc1	–	–	rat Sprague-Dawley, plasma	intravenous, 2 mg/kg, 2 h	–	plasma concentration	5.98 ng/mL
O=C1NC2(CC2)COc2ncc(F)cc2[C@H]2COCCN2c2ccn3ncc1c3n2	–	–	Sprague-Dawley rat, female, serum	oral, 20 mg/kg/day, 4 weeks daily, end of treatment	–	alanine aminotransferase activity	30.9 ± 5.1 U/L
COc1cc2c(cc1NC(=O)c1cncn1C)C[C@H]1[C@H]3CCCC[C@@]23CCN1C	–	–	C57BL/6 mouse, plasma	oral, 50 µg/g, 120 min	–	plasma concentration	5650 ng/mL
NC[C@]1(CC(=O)O)CC[C@H]([18F])CC1	–	PET, arterial plasma	rhesus monkey, plasma parent	intravenous, baseline	–	fast-phase half-life	2.86 min
CC(=O)NCCCC[C@@H]1NC(=O)[C@H](Cc2c[nH]c3c(C)cccc23)NC(=O)[C@H]([C@@H](C)O)NC(=O)[C@H](CC(N)=O)NC(=O)[C@@H](NC(C)=O)C(C)(C)SSC(C)(C)[C@@H](C(=O)N[C@@H](Cc2ccc(OCCN)cc2)C(=O)N[C@@H](Cc2ccc3ccccc3c2)C(=O)NC2(C(=O)N[C@@H](CCC(=O)O)C(=O)N[C@@H](CC(N)=O)C(=O)N[C@@H](Cc3cccnc3)C(=O)N(C)CC(N)=O)CCOCC2)NC1=O	ATP-dependent translocase ABCB1 (ABCB1, Homo sapiens, UniProt P08183)	transport, inhibitor	LLC-PK1 expressing MDR1	30 µM, 90 min, added: [3H]digoxin	–	efflux ratio	15.4
CNC(=O)CC1CN(C(=O)c2ccc(C(F)(F)F)cn2)CCN1C(=O)c1cccnn1 (stereo not shown)	Huh-7-ACE2	CellTiter-Glo	–	0.781 µM, 48 h, unit not given	baseline: DMSO	viability	1.17 and 1.06 and 1.04
Cc1ccc(NS(=O)(=O)c2c(C(=O)N3CCCCCC3)c(C)n(C)c2C)c(Cl)c1	human cells	–	–	100 µM, 60 h	–	viability	97.2%
Cc1nc2cccc(OCC(C)(C)C(=O)NC(C)C)c2c(N)c1C(=O)[O-].[Na+]	Escherichia coli	reverse mutation, preincubation	WP2 uvrA	0.32 mg/plate, without S9	–	revertant colonies	21 ± 3 colonies/plate
Cc1cc(-c2ccc3ccccc3c2)nnc1NCCN1CCN(C)CC1	CYP2C19	substrate	recombinant enzyme	100 nM, 1 h	–	remaining compound	94%

Excerpt of the above:
Structure (SMILES)	tested on	assay	test system	setting	how to read	measurement	result
Cc1nc2cccc(OCC(C)(C)C(=O)NC(C)C)c2c(N)c1C(=O)[O-].[Na+]	Escherichia coli	reverse mutation, preincubation	WP2 uvrA	0.32 mg/plate, without S9	–	revertant colonies	21 ± 3 colonies/plate
